Published values pooled from the literature.
Each line is one published result; not all experiments were run side by side. ± gives the spread as reported.
MEP cytidylyltransferase IspD: MEP cytidylyltransferase IspD (Plasmodium falciparum, UniProt Q8I273)
Gja8: Gap junction alpha-8 protein (Gja8, Mus musculus, UniProt P28236)
FGFR1: Fibroblast growth factor receptor 1 (FGFR1, Homo sapiens, UniProt P11362)
TDO2: Tryptophan 2,3-dioxygenase (TDO2, Homo sapiens, UniProt P48775)
PDE5A: cGMP-specific 3',5'-cyclic phosphodiesterase (PDE5A, Homo sapiens, UniProt O76074)

| Structure (SMILES) | target | assay | system | conditions | IC50 [nM] |
| --- | --- | --- | --- | --- | --- |
| C=C1CN(S(=O)(=O)c2ccc(C)cc2)CCCN(Cc2ccccc2)CCCN(S(=O)(=O)c2ccc(C)cc2)C1 | T-cell surface glycoprotein CD4 (CD4, Homo sapiens, UniProt P01730) | protein level, flow cytometry |  |  | 790 |
| CC(C)Sc1ccc(SC(C)C)c(O)c(=O)c1O | Protein P, RNase H domain (P, Hepatitis B virus genotype D subtype ayw, UniProt P03156) | RNase H activity, inhibitor | Hepatitis B virus |  | 112000 ± 8000 |
| CN(C)c1ccc2c(-c3cc(C(=O)N4CCN(CCCOc5ccc6nccc(C(=O)NCC(=O)N7CC(F)(F)C[C@H]7C#N)c6c5)CC4)ccc3C(=O)[O-])c3ccc(=[N+](C)C)cc-3oc2c1 | Prolyl endopeptidase FAP (Fap, Mus musculus, UniProt P97321) | enzyme activity, inhibitor, fluorescence |  |  | 1.07 |
| O=C(O)[C@@H]1Cc2c([nH]c3ccccc23)[C@@H](c2ccccc2Cl)N1 | MEP cytidylyltransferase IspD | enzyme activity, inhibitor, fluorimetric pyrophosphate |  |  | ~1000 |
| COc1ccccc1CN1CCN2C(C)CCN([C@H](CCCCN)C(=O)NCC(c3ccccc3)c3ccccc3)C(=O)C2C1 (stereo partly drawn) | C-X-C chemokine receptor type 3 (CXCR3, Homo sapiens, UniProt P49682) |  |  |  | 3 |
| N#CCCNC(c1ccccc1)(c1ccccc1)c1ccccc1Cl | Gja8 | gap junction current, inhibitor, dual whole-cell voltage clamp | transfected mouse N2a cell pairs |  | 6000 |
| Cc1cccc(-c2nc(Nc3nc4ccccc4o3)ncc2C#N)c1 | Metabotropic glutamate receptor 5 (Grm5, Rattus norvegicus, UniProt P31424) | calcium signal, antagonist |  |  | 138 |
| c1ccc(/N=c2\oc3ccccc3cc2-c2ccccc2)cc1 | Prostaglandin G/H synthase 2 (PTGS2, Homo sapiens, UniProt P35354) | enzyme activity, inhibitor |  |  | 9.7 |
| COc1cc2nccc(Oc3ccc(NC(=S)Nc4ccccc4F)c(Cl)c3)c2cc1C(N)=O | FGFR1 |  |  |  | 2800 |
| Cc1ccc(NC(=O)Nc2ccc(Cl)c(NCc3cccnc3)c2)cc1F | Epithelial discoidin domain-containing receptor 1 (DDR1, Homo sapiens, UniProt Q08345) | enzyme activity, inhibitor, mobility shift |  |  | 2240 |
| Cc1ccc(CNC(=O)[C@@H](NC(=O)[C@H](CCc2ccccc2)NC(=O)[C@@H](NC(=O)c2cnc(C)cn2)C(C)(C)C)C(C)C)cc1 | 20S proteasome (Plasmodium falciparum, UniProt A0A5K1K7U1+Q8IJT1) | β5 activity, inhibitor |  | together with: Suc-LLVY-AMC, PA28α-activated | 47.2 |
| Cc1cc(=O)c(O)c(CN2CCSCC2)n1C | TDO2 | inhibitor |  | together with: L-tryptophan 400 µM | 7120 |
| O=C(O)[C@@H]1Cc2c([nH]c3ccccc23)[C@@H](c2ccc(Cl)cc2F)N1 | MEP cytidylyltransferase IspD | enzyme activity, inhibitor, fluorimetric pyrophosphate |  | 60 nM enzyme | 140 ± 30 |
| O=c1[nH]c(=O)c2ncn(CCOCP(=O)(O)OP(=O)(O)OP(=O)(O)O)c2[nH]1 | DNA polymerase catalytic subunit (Human cytomegalovirus, UniProt P08546) | enzyme activity, inhibitor, radiometric |  |  | > 100000 |
| Cc1cc([N+](=O)[O-])cn(CC(=O)c2cc3cc(Cl)ccc3[nH]2)c1=O | Replication protein A 70 kDa DNA-binding subunit (RPA1, Homo sapiens, UniProt P27694) | inhibitor, FRET |  |  | 15900 ± 1400 |
| COc1cc2nccc(Oc3ccc(NC(=S)NCCN4CCOCC4)c(Cl)c3)c2cc1C(N)=O | FGFR1 |  |  |  | 3750 |
| O=C(NCCCN1CCCC1)c1cccc(Br)c1 | Lethal(3)malignant brain tumor-like protein 3 (Homo sapiens, UniProt Q96JM7) | methyl-lysine reader binding, inhibitor, AlphaScreen |  |  | > 100000 |
| COc1ccc(-c2oc3ccccc3c(=O)c2OCc2ccccc2)cc1 | β-glucosidase | enzyme activity, inhibitor |  |  | 170 ± 50 |
| CC(=O)c1c(O)c2ccc3ccccc3c2oc1=O | Tyrosine-protein kinase SYK (SYK, Homo sapiens, UniProt P43405) | enzyme activity, inhibitor, ADP detection |  |  | > 100000 |
| CC(C)(O)C(=O)C(=O)Nc1cccc(C(=O)N2CCC(c3cccc(CN)c3)CC2)c1 | Tryptase beta-1 (Homo sapiens, UniProt Q15661) | enzyme activity, inhibitor |  | tryptase 10 pM, together with: AMC substrate | 2.74 |
| CC(=O)SCC(=O)c1ccc(NS(=O)(=O)c2ccc(OCCCN(C)C)cc2)nc1 | HDAC (Lucilia cuprina egg nuclear extract) | enzyme activity, inhibitor, fluorometric |  |  | 410 |
| O=C1NCCc2c(Cc3ccc(Cl)cc3)[nH]c3c(OC(F)F)ccc1c23 | PDE5A | enzyme activity, inhibitor |  |  | 12 |
| CCCN(CC(=O)N(CCC)CC(=O)N(CCC)CC(=O)N(CCC)CC(=O)N(CCC)CC(=O)N(CCC)CC(=O)N(CC(N)=O)Cc1cn(CCCNC(=O)CCCOc2cccc(-c3nc4ccc(-c5nc6ccc(N7CCN(C)CC7)cc6[nH]5)cc4[nH]3)c2)nn1)C(=O)CNCc1cn(CCCNC(=O)CCCOc2cccc(-c3nc4ccc(-c5nc6ccc(N7CCN(C)CC7)cc6[nH]5)cc4[nH]3)c2)nn1 | MBNL1–r(CUG)109 complex | MBNL1 displacement |  | together with: bulk yeast tRNA competitor | > 30000 |
| CC(C)c1ccc(C(=O)Nc2ccc(CN)cc2)c(O)c1 | Transmembrane protease serine 2 (TMPRSS2, Homo sapiens, UniProt O15393) | enzyme activity, inhibitor, fluorescence |  | with preincubation | 1500 |

| Structure (SMILES) | target | assay | system | conditions | IC50 [nM] |
| --- | --- | --- | --- | --- | --- |
| CCC(CC)c1nc(-c2ccc(O)cc2O)cs1 | Semaphorin-3C, with neuropilin-1 (SEMA3C, Homo sapiens, UniProt Q99985) | SEMA3C binding, inhibitor, displacement |  | together with: SEMA3C-AP | 11700 |
| C#CCCCC(=O)NCCCC[C@H](NC(=O)[C@@H](NC(=O)[C@H](CO)NC(=O)[C@@H]1CCCN1C(=O)[C@H](CO)NC(=O)[C@H](Cc1ccc(O)cc1)NC(=O)[C@H](CCSC)NC(=O)[C@H](C)NC(=O)[C@H](CCSC)NC(=O)[C@H](CO)NC(=O)[C@@H]1CCCN1C(=O)[C@H](Cc1ccc(O)cc1)NC(=O)[C@@H](N)CC(=O)O)C(C)C)C(=O)O | Ephrin type-A receptor 2, extracellular domain (EPHA2, Homo sapiens, UniProt P29317) | ephrin-A5 binding, inhibitor, ELISA |  |  | > 200000 |
| O=C(CCCCCCNCc1ccc(F)cc1)NO | Histone deacetylase 3 (HDAC3, Homo sapiens, UniProt O15379) | enzyme activity, inhibitor, fluorescence |  |  | 240 |
| Cc1ccc(C(=O)Nc2ccc(CP(=O)(O)O)cc2CP(=O)(O)O)cc1NC(=O)c1cccc(NC(=O)Nc2cccc(C(=O)Nc3cc(C(=O)Nc4ccc(CP(=O)(O)O)cc4CP(=O)(O)O)ccc3C)c2)c1 | Coagulation factor XIII A chain (F13A1, Homo sapiens, UniProt P00488) | enzyme activity, inhibitor, fluorescence |  |  | > 200000 |
| CC1=C(C2=C(C)C(=O)c3c(cc(O)c(O)c3Cc3ccccc3)C2=O)C(=O)c2cc(O)c(O)c(Cc3ccccc3)c2C1=O (racemic) | Bcl-2-like protein 1, transmembrane domain deleted (BCL2L1, Homo sapiens, UniProt Q07817) | binding, fluorescence polarization |  | together with: FITC-Bim BH3 peptide | 54 ± 4 |
| COc1cc2nccc(Oc3ccc(N4C(=O)CNC4=S)c(Cl)c3)c2cc1C(N)=O | FGFR1 |  |  |  | 1260 |
| O=C(NO)[C@H](Cc1ccc(O)cc1)n1nncc1CNS(=O)(=O)c1ccc(-c2ccccc2)s1 | Endoplasmic reticulum aminopeptidase 2 (ERAP2, Homo sapiens, UniProt Q6P179) | enzyme activity, inhibitor, fluorescence |  |  | 3280 |
| COc1cc2nccc(Oc3ccc(NC(=S)NC4CC4)c(Cl)c3)c2cc1C(=O)N1CCCCC1 | FGFR1 |  |  |  | > 10000 |
| CC[C@H](C)[C@H](NC(=O)[C@H](CO)NC(=O)[C@@H](Cc1cccnc1)NC(=O)[C@@H](Cc1ccc(Cl)cc1)NC(=O)[C@@H](Cc1ccc2ccccc2c1)NC(C)=O)C(=O)N[C@H](CCCCNC(C)C)C(=O)N[C@@H](CC(C)C)C(=O)N[C@@H](CCCCNC(C)C)C(=O)N1CCC[C@H]1C(=O)N[C@H](C)C(N)=O | Gonadotropin-releasing hormone receptor III (Gallus gallus, UniProt Q5EFE0) | inositol phosphate production, antagonist | COS-7 transfected | together with: GnRH-II 1 nM | 3890 ± 2030 |
| CCC1(CC)C[C@@H](NC(=O)Nc2cccc3c(C)nccc23)c2cc(F)ccc2O1 | Transient receptor potential cation channel subfamily V member 1 (Trpv1, Rattus norvegicus, UniProt O35433) | capsaicin-induced 45Ca2+ uptake, antagonist | CHO expressing rat TRPV1 | pH 7.4, together with: capsaicin 500 nM | 3.7 ± 1.4 |
| C[C@@H](O)[C@H](NC(=O)NS(=O)(=O)OC[C@H]1O[C@@H](n2cnc3c(N)ncnc32)[C@H](O)[C@@H]1O)C(=O)O | tsaD/tsaC, with TsaB and TsaE (Escherichia coli, UniProt P05852+P45748) | inhibitor, HPLC |  | pH 7.5, 23 °C, preincubation 1 min, together with: ATP 1 mM and L-threonine | 51200 ± 1400 |
| COC(=O)[C@H]1C[C@H](OCCCl)[C@@H](O[C@H]2O[C@H](CO)[C@@H](O)[C@H](O)[C@@H]2n2cc(-c3ccccn3)nn2)C[C@@H]1C(=O)OC | CD209 antigen (CD209, Homo sapiens, UniProt Q9NNX6) | cell-free assay, SPR |  |  | 180000 |
| Clc1ccccc1C(NCCCn1ccnc1)(c1ccccc1)c1ccccc1 | Gja8 | gap junction current, inhibitor, dual whole-cell voltage clamp | transfected mouse N2a cell pairs |  | 7300 |
| O=C(C[S+]([O-])c1cccs1)C12CC3CC(CC(C3)C1)C2 (stereo not drawn) | 11-beta-hydroxysteroid dehydrogenase 1 (HSD11B1, Homo sapiens, UniProt P28845) | enzyme activity in cells, inhibitor |  |  | 59 |
| COc1ccc2cc(C(=O)NCCN3CCC(Cc4ccccc4)CC3)ccc2c1 | Sodium-dependent serotonin transporter (SLC6A4, Homo sapiens, UniProt P31645) | transporter uptake |  |  | 490 to 3190 |
| COc1cc(/C=C/c2cc(/C=C/c3ccc(O)c(OC)c3)n(C(=O)c3ccco3)n2)ccc1O | Sterol carrier protein 2 (Helicoverpa armigera, UniProt K7NSY9) | displacement of 1,8-ANS, fluorescence |  | pH 7.0, 25 °C, together with: 1,8-ANS 15 µM | 25800 |
| O=C(Nc1cccnc1)c1ccccc1OCc1ccccc1 | Phosphatidylcholine:ceramide cholinephosphotransferase 2 (SGMS2, Homo sapiens, UniProt Q8NHU3) | enzyme activity, inhibitor |  |  | 3940 |
| COCCN1CCc2c(Cc3ccc(Cl)cc3)[nH]c3c(OC)ccc(c23)C1=O | PDE5A | enzyme activity, inhibitor |  |  | 10 |
| Cc1noc(NS(=O)(=O)c2ccc(NC(=O)c3cc(-c4ccc5ccccc5c4)nc4ccccc34)cc2)c1C | Peptidyl-prolyl cis-trans isomerase A (PPIA, Homo sapiens, UniProt P62937) | enzyme activity, inhibitor |  |  | 2840 |
| CCCCCc1ccc(S(=O)(=O)N2CC2C(=O)N(C)C)cc1 (stereo not drawn) | Protein disulfide-isomerase (P4HB, Homo sapiens, UniProt P07237) | insulin reduction, inhibitor, turbidity |  |  | 80 to 85 |
| COC1=Cc2c(cc(O)c3cc(C)c(OC)cc23)C(C)(C)C1=O | TDO2 | kynurenine production | HEK293 expressing human TDO2 |  | 24700 |
| CCCCn1c(-c2ccc3nn(CCC)c(Cc4ccc(-c5ccccc5-c5nn[nH]n5)cc4)c3c2)nc2ccccc21 | Type-1 angiotensin II receptor (AGTR1, Homo sapiens, UniProt P30556) | reporter gene, antagonist, luciferase |  |  | 6.31 |
| COc1cc2nccc(Oc3ccc4c(c3)CN(CC(F)F)C(=O)N4)c2cc1C(N)=O | FGFR1 |  |  |  | 6040 |
| Cc1ccc(CNC(=O)[C@H](CCc2ccccc2)NC(=O)[C@H](CC(=O)NCC(C)(C)C)NC(=O)CCc2cccc(F)c2)cc1 | Proteasome subunit beta type-10 / Proteasome subunit beta type-3 (Homo sapiens, UniProt P40306+P49720) | inhibitor |  |  | > 100000 |

Some of these lines once more:
| Structure (SMILES) | target | assay | system | conditions | IC50 [nM] |
| --- | --- | --- | --- | --- | --- |
| O=C(NO)[C@H](Cc1ccc(O)cc1)n1nncc1CNS(=O)(=O)c1ccc(-c2ccccc2)s1 | Endoplasmic reticulum aminopeptidase 2 (ERAP2, Homo sapiens, UniProt Q6P179) | enzyme activity, inhibitor, fluorescence |  |  | 3280 |
| COc1cc2nccc(Oc3ccc(NC(=S)NC4CC4)c(Cl)c3)c2cc1C(=O)N1CCCCC1 | FGFR1 |  |  |  | > 10000 |
| CC[C@H](C)[C@H](NC(=O)[C@H](CO)NC(=O)[C@@H](Cc1cccnc1)NC(=O)[C@@H](Cc1ccc(Cl)cc1)NC(=O)[C@@H](Cc1ccc2ccccc2c1)NC(C)=O)C(=O)N[C@H](CCCCNC(C)C)C(=O)N[C@@H](CC(C)C)C(=O)N[C@@H](CCCCNC(C)C)C(=O)N1CCC[C@H]1C(=O)N[C@H](C)C(N)=O | Gonadotropin-releasing hormone receptor III (Gallus gallus, UniProt Q5EFE0) | inositol phosphate production, antagonist | COS-7 transfected | together with: GnRH-II 1 nM | 3890 ± 2030 |
| CCC1(CC)C[C@@H](NC(=O)Nc2cccc3c(C)nccc23)c2cc(F)ccc2O1 | Transient receptor potential cation channel subfamily V member 1 (Trpv1, Rattus norvegicus, UniProt O35433) | capsaicin-induced 45Ca2+ uptake, antagonist | CHO expressing rat TRPV1 | pH 7.4, together with: capsaicin 500 nM | 3.7 ± 1.4 |
